# Published values collected from several papers.
# Protocols differ between the studies behind these lines. Several values in a cell are separate wells, animals, samples, runs or records. Numbers after ± are the reported error.
# HDAC6 ZnF-UBD domain: Protein deacetylase HDAC6, ZnF-UBD domain (HDAC6, Homo sapiens, UniProt Q9UBN7)
# UniProt Q9UBN7, sequence (whole entry, looked up): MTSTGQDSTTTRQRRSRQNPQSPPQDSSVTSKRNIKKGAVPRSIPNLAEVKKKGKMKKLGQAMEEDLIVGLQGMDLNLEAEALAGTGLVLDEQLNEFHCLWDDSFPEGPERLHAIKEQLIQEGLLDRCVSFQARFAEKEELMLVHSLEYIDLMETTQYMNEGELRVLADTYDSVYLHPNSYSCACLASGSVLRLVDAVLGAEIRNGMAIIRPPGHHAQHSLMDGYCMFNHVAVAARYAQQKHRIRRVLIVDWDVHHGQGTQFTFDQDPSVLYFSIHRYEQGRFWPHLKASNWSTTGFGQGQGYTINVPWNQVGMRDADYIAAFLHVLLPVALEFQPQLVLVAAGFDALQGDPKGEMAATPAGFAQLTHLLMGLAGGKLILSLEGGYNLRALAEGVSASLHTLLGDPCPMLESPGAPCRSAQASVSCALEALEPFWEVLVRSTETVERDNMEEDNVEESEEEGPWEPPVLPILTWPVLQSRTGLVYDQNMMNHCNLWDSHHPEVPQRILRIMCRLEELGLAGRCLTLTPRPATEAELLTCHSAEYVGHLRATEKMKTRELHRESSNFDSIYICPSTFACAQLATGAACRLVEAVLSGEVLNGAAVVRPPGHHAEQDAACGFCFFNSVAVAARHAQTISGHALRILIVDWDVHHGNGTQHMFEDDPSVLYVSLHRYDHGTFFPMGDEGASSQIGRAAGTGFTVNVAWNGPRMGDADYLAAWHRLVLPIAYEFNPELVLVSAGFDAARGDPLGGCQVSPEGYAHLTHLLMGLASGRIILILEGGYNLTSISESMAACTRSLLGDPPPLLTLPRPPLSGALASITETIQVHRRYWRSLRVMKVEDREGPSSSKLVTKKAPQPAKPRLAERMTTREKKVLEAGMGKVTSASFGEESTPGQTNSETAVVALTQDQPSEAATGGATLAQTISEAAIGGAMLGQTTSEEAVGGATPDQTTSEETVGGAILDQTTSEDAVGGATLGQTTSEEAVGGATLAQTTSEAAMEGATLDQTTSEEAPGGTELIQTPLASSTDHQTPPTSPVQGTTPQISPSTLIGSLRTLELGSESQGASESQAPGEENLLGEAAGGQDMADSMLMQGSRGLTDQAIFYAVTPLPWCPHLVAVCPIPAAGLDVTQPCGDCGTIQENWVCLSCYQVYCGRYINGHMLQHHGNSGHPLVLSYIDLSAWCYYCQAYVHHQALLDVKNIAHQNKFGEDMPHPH
# UniProt P34995, sequence (whole entry, unmodified, looked up): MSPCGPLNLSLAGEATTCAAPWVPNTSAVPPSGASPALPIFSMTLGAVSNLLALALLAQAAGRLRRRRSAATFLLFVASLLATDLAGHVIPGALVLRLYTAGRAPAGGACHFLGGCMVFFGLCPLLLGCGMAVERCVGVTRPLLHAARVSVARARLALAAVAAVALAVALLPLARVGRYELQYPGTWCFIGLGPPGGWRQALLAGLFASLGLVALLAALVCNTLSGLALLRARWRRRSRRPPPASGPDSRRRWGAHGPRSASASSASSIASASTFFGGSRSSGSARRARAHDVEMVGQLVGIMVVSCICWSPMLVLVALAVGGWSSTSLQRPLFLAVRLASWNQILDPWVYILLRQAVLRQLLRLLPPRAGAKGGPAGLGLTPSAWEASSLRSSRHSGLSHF
# UniProt P50613, sequence (whole entry, looked up): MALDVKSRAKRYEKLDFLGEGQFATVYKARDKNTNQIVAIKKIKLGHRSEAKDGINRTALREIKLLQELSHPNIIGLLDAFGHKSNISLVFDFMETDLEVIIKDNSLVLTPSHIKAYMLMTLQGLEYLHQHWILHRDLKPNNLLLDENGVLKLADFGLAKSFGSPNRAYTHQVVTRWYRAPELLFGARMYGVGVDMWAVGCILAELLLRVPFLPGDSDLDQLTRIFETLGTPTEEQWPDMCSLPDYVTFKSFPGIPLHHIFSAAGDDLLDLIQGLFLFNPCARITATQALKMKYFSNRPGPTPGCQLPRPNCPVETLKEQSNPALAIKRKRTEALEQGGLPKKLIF
Compound,tested on,assay,test system,setting,scale,quantity,value
CC1=NN(c2cc(Cl)ccc2Cl)C(=O)C1=NNc1ccc(S(N)(=O)=O)cc1,Saccharomyces cerevisiae,,,100 µg/mL,,glucose uptake,53.1%
CC(C)[C@@H]1NC(=O)[C@@H](CCN)NC(=O)[C@H]([C@@H](C)O)NC(=O)[C@@H](CCCN)NC(=O)[C@H](Cc2ccccc2)NC(=O)[C@@H](Cc2ccccc2)NC1=O,Naegleria fowleri,,,trophozoites,,IC90,> 16 µg/mL
Nc1nc(-c2ccccc2)nc2[nH]nc(Nc3ccc(C(F)(F)F)cc3)c12,coxsackievirus B3,,"31-1-93, NMRI mice, CVB3 chronic myocarditis","oral, 100 mg/kg twice daily, day 11, dosed days 0 to 6, score scale 0 to 7",direction not given,clinical score,0.1
CCc1nn(C)c2nc(-c3ccc(C(=O)O)cc3)nc(NCc3ccc(F)cc3)c12,Cryptosporidium parvum,,HCT-8,"EC90, 3 h",relative to: DMSO control,parasite number,122% and 117% and 104% and 118%
CC1=NOC(=O)C1=NNc1ccc(S(N)(=O)=O)cc1,Saccharomyces cerevisiae,,,100 µg/mL,,glucose uptake,23.2%
O=C1C=C2NCCc3c[nH]c(c32)C1=O,Saccharomyces cerevisiae,"cell growth, liquid culture",BY4741,"100 µM, 24 h",,inhibition,0.7%
c1coc(-c2n[nH]cc2-c2ccnc3ccccc23)c1,CDC15 (Candida albicans),"kinase binding, MIB/MS competition",Candida albicans lysate,1 µM,relative to: DMSO,log2 fold change,-0.18
COC(=O)[C@H](Cc1c[nH]c2ccccc12)NCc1cc2ccccc2nc1SC,Pseudomonas aeruginosa,,,"128 µg/mL, together with: pentamidine 50 µM",relative to: control,growth,79.8%
Cn1cc(-c2ccc(-c3cncc(Cl)c3N3CCC4(CCNC4=O)CC3)cc2)cn1,COLO 205,"gene expression, microarray, refers to: ABCC3 mRNA",,"concentration not given, 2 h",relative to: untreated cells,log2 fold change,4.64
CC(C)n1ncc2c(C(=O)NCC3(C)CNC3)cc(C3CC3)nc21,Enterovirus D68,cytopathic effect,"RD, US/IL/14-18956",50 nM,,cell protection,-0.422% and -0.281% and -0.844%
CC(=O)NC[C@H]1CN(c2ccc(N3CCOCC3)c(F)c2)C(=O)O1,Streptococcus pyogenes,broth microdilution,,,,MIC50,0.5 µg/mL
CC1=NCCNC(=O)C1=NNc1ccc(S(N)(=O)=O)cc1,Saccharomyces cerevisiae,,,50 µg/mL,,glucose uptake,27%
N#CC(=C1C=CC(=NOC(=O)OCc2ccccc2)C=C1)c1ccccc1,Candidozyma auris,,ATCC MYA-5001,concentration not given,,antifungal activity,active
CC1(CNc2nc(-c3cccs3)nc(Cl)c2-c2c(F)cc(N)cc2F)COC1,Schistosoma haematobium,,adult,"1.2 µM, after washout",relative to: control,motility,~10%
CC(=O)N1CCC(C(=O)N2CCN3C(=O)c4cc(-c5ccccc5)ccc4NC(=O)C3C2)CC1 (stereo not drawn),Caenorhabditis elegans,,N2,1.56 µM,,median lifespan,21 days
CCCCCOc1ccc(-c2ccc(-c3ccc(C(=O)N[C@H]4C[C@@H](O)[C@@H](OCC[N+](C)(C)C)NC(=O)[C@@H]5[C@@H](O)[C@@H](C)CN5C(=O)[C@H]([C@@H](C)O)NC(=O)[C@H]([C@H](O)[C@@H](O)c5ccc(O)cc5)NC(=O)[C@@H]5C[C@@H](O)CN5C(=O)[C@H]([C@@H](C)O)NC4=O)cc3)cc2)cc1,Candida glabrata,,"10956, neutropenic mouse, disseminated candidiasis","dose not given, average 24 h AUC over 7 days",,free AUC/MIC for 1 log kill,3.9
CO[C@H]1[C@H](O[C@H]([C@H]2O[C@@H](n3ccc(=O)[nH]c3=O)[C@H](O)[C@@H]2O)[C@H](NCCCNC(=O)[C@@H](NC(=O)[C@@H](NC(=O)N[C@H](C(=O)O)C(C)C)[C@@H]2CCN=C(N)N2)[C@@H](O)C(C)C)C(=O)O)O[C@H](CN)[C@H]1O,Candida glabrata,alamar blue,DSY565 (NR-51686),,,MIC50,> 35 µg/mL
CC[C@@H]1[C@H](F)C(=O)N[C@@H]1COc1nccc2cc(C(N)=O)c(OC)cc12,"CDK7 (Homo sapiens, UniProt P50613)","ATP-site probe binding, ActivX profiling",THP-1 cell lysate,"0.01 mM, Lys2 site",,inhibition,-3%
CC1=NN(c2ccccc2)C(=O)C1=NNc1ccc(S(N)(=O)=O)cc1,Saccharomyces cerevisiae,,,50 µg/mL,,glucose uptake,21.5%
CO/N=C(\C(=O)N[C@@H]1C(=O)N2C(C(=O)O)=C(CSc3nc(=O)c(O)nn3C)CS[C@H]12)c1csc(N)n1,Neisseria gonorrhoeae,broth microdilution,WHO O,1.5 h,,MIC,1 µg/mL
N=C(N)c1ccc(OCc2ccc(Br)cc2COc2ccc(C(=N)N)cc2)cc1,Escherichia coli,,ATCC 25922,"concentration not given, together with: rifampicin",,MIC in combination,6.25 µg/mL
Cc1sc2ncn(CC(=O)O)c(=O)c2c1C,HDAC6 ZnF-UBD domain,,,,,Kd,188 µM
N=C(N)c1ccc(OCCCCCOc2ccc(C(=N)N)cc2)cc1,Escherichia coli,,BW25113,"concentration not given, lowest-FICI combination, together with: rifampicin",,MIC in combination,50 µg/mL
CN[C@H](CC(C)C)C(=O)N[C@H]1C(=O)N[C@@H](CC(N)=O)C(=O)N[C@H]2C(=O)N[C@H]3C(=O)N[C@H](C(=O)N[C@H](C(=O)O)c4cc(O)cc(O)c4-c4cc3ccc4O)[C@H](O)c3ccc(c(Cl)c3)Oc3cc2cc(c3O[C@@H]2O[C@H](CO)[C@@H](O)[C@H](O)[C@H]2O[C@H]2C[C@](C)(N)[C@H](O)[C@H](C)O2)Oc2ccc(cc2Cl)[C@H]1O,Streptococcus pyogenes,,10 isolates,pH 8.5,,MIC50,1 µg/mL
CC1=NN(c2ccc(F)cc2)C(=O)C1=NNc1ccc(S(N)(=O)=O)cc1,Saccharomyces cerevisiae,,,200 µg/mL,,glucose uptake,60%
CCCCC[C@H](O)/C=C/[C@H]1[C@H](O)CC(=O)[C@@H]1C/C=C\CCCC(=O)O,"PTGER1 (Homo sapiens, UniProt P34995, F334A/G92A/P39A)","IP1 accumulation, agonist",AD293,,,EC50,1.08 µM
CC1=NN(c2cccc([N+](=O)[O-])c2)C(=O)C1=NNc1ccc(S(N)(=O)=O)cc1,Saccharomyces cerevisiae,,,500 µg/mL,,glucose uptake,35.2%
O=C(O)Cc1nc2ccccc2o1,HDAC6 ZnF-UBD domain,,,,,Kd,> 1000 µM
CN[C@H](CC(C)C)C(=O)N[C@H]1C(=O)N[C@@H](CC(N)=O)C(=O)N[C@H]2C(=O)N[C@H]3C(=O)N[C@H](C(=O)N[C@H](C(=O)O)c4cc(O)cc(O)c4-c4cc3ccc4O)[C@H](O)c3ccc(c(Cl)c3)Oc3cc2cc(c3O[C@@H]2O[C@H](CO)[C@@H](O)[C@H](O)[C@H]2O[C@H]2C[C@](C)(N)[C@H](O)[C@H](C)O2)Oc2ccc(cc2Cl)[C@H]1O,Staphylococcus aureus,,"USA300 LAC, female ICR mice, kidney infection, kidney",,,bacterial load,3.97 log CFU/g and 4.24 log CFU/g and 7.59 log CFU/g and 7.65 log CFU/g and 4.21 log CFU/g and 4.68 log CFU/g
OC(CCN1CCCCC1)(c1ccccc1)C1CC2C=CC1C2 (stereo not drawn),,resting-state EEG,healthy elderly humans,"oral, 4 mg, eyes open, LS mean",,EEG Beta1-power Pz-O2,3.6 µV²
CC1=NN(c2ccc(Cl)cc2)C(=O)C1=NNc1ccc(S(N)(=O)=O)cc1,Saccharomyces cerevisiae,,,50 µg/mL,,glucose uptake,28.8%
N=C(N)c1ccc(OCc2cc(COc3ccc(C(=N)N)cc3)cc(-c3ccccc3)c2)cc1,Escherichia coli,checkerboard,mcr-3 polymyxin-resistant,"concentration not given, together with: rifampicin",,MIC of compound in combination,3.13 µg/mL
CC1=NN(c2ccccn2)C(=O)C1=NNc1ccc(S(N)(=O)=O)cc1,Saccharomyces cerevisiae,,,50 µg/mL,,glucose uptake,7.3%
Oc1ccccc1-c1n[nH]cc1-c1ccnc2ccccc12,CDC15 (Candida albicans),"kinase binding, MIB/MS competition",Candida albicans lysate,1 µM,relative to: DMSO,log2 fold change,0.26
c1cnc2c(c1)ccc1cccnc12,Taenia solium,trypan blue uptake,viable cysts in vitro,50 µg/mL,,cysticidal efficacy,100%
Cc1cc(OC(C)C)ccc1C(=O)C(C)(C)NC(=O)c1sccc1C,Botrytis cinerea,germ tube elongation,B05.10,3 µg/mL,,inhibition,97.2 ± 2.5%

# For quick reference, copied from above:
Compound,tested on,assay,test system,setting,scale,quantity,value
N=C(N)c1ccc(OCc2ccc(Br)cc2COc2ccc(C(=N)N)cc2)cc1,Escherichia coli,,ATCC 25922,"concentration not given, together with: rifampicin",,MIC in combination,6.25 µg/mL
CC1=NOC(=O)C1=NNc1ccc(S(N)(=O)=O)cc1,Saccharomyces cerevisiae,,,100 µg/mL,,glucose uptake,23.2%
